Measurements of several laboratories.
Protocols differ between the studies behind these lines. Numbers after ± are the reported error.
Sample: plasma

C[C@H](CCC(=O)NCC(=O)O)[C@H]1CC[C@H]2[C@@H]3CC[C@@H]4C[C@H](OS(=O)(=O)O)CC[C@]4(C)[C@H]3CC[C@]12C
Cmin (human; baseline): 396 ± 105 nM

Cc1ncnc2c1ccn2[C@@H]1C[C@H](Oc2cc(C(F)F)c(F)c3c2CNCC3)[C@@H](O)[C@H]1O
Cmin (human; 0.5 mg once daily): 0.971 ng/mL

Cn1cc(-c2cn3nccc3c(-c3cnn([C@]4(CC#N)C[C@@H](C#N)C4)c3)n2)cn1
Cmin (healthy humans fed; 100 mg once daily, day 10, geometric mean): 10.4 ng/mL

O=C(O)CCC(=O)O.[2H]C([2H])([2H])Oc1cc(C)c2[nH]ccc2c1CN1CC[C@@H](C2CC2)C[C@H]1c1ccc(C(=O)O)cc1
Cmin (human; 50 mg twice daily, day 10, multiple ascending dose, geometric mean): 1610 ng/mL

Fc1ccc([C@@H]2CCNC[C@H]2COc2ccc3c(c2)OCO3)cc1
Cmin (human, all CYP2D6 genotypes; oral, 20 mg, steady state): 15 ng/mL

C[C@H](CCC(=O)NCCS(=O)(=O)O)[C@H]1CC[C@H]2[C@@H]3[C@H](O)C[C@@H]4C[C@H](O)CC[C@]4(C)[C@H]3C[C@H](O)[C@]12C
Cmin (human; endogenous baseline diurnal): 8.1 ± 0.55 nM

CCOc1c([C@H](C)n2nc(C)c3c(N)ncnc32)cc(Cl)c(F)c1[C@@H]1CNC(=O)C1
Cmin (human patients, indolent lymphoma; oral, 20 mg, day 15, monotherapy): 202 nM

C[C@H](CCC(=O)NCC(=O)O)[C@H]1CC[C@H]2[C@@H]3CC[C@@H]4C[C@H](O)CC[C@]4(C)[C@H]3C[C@H](O)[C@]12C
Cmin (human; oral, dose not given, control): 49.8 ± 10.3 nM

CCCCOCCOc1ccc(-c2ccc3c(c2)/C=C(/C(=O)Nc2ccc([S@@+]([O-])Cc4cncn4CCC)cc2)CCCN3CC(C)C)cc1
Cmin (human, matched controls (mild impairment); oral, 150 mg, day 1): 94 ng/mL

For quick reference, copied from above:
C[C@H](CCC(=O)NCC(=O)O)[C@H]1CC[C@H]2[C@@H]3CC[C@@H]4C[C@H](OS(=O)(=O)O)CC[C@]4(C)[C@H]3CC[C@]12C
Cmin (human; baseline): 396 ± 105 nM
